Measurements pooled from the literature.
Protocols differ between the studies behind these lines.
Method: steady-state kinetics
B1: LdmS (Staphylococcus aureus, UniProt Q2FWC5); chain MTNNGNEPNLTLSDLYDKDVVYTSRPSYISNPWLKPDEHQSNFLTGRELLIANQLPVIVHEASATDKLHQLFQVIGKEVPNSIYTFNNQQSYENLIKQLAHKENKKIYFQYIHDETILNQQYYALDKTLFVALNNKARIPEWTNGKFLPKRKVVKIEQFENEIKNWEFPLVIKPGDDLPTAGGYGVMICYHDADLQKAITRIKEATAETNSLIIEQKIEEKANYCVQFAYSESLGIQYLGAATQLTDKYGFYNGNENTTNVPEHVIEAGRQIMENGVNQGFFGVAGFDLLVDEDDNVYAIDLNFRQNGSTSMLLLANELNSGYQKFYSYHSKGDNTHFFNTILKYVKEGSLYPLSYYDGDWYGEDKVKSRFGCIWHGDSKETVLENERAFLAELEHY
B2: cyc1 V329M (Streptomyces coelicolor, UniProt Q9K499); chain MHAFPHGTTATPTAIAVPPSLRLPVIEAAFPRQLHPYWPKLQETTRTWLLEKRLMPADKVEEYADGLCYTDLMAGYYLGAPDEVLQAIADYSAWFFVWDDRHDRDIVHGRAGAWRRLRGLLHTALDSPGDHLHHEDTLVAGFADSVRRLYAFLPATWNARFARHFHTVIEAYDREFHNRTRGIVPGVEEYLELRRLTFAHWIWTDLLEPSSGCELPDAVRKHPAYRRAALLSQEFAAWYNDLCSLPKEIAGDEVHNLGISLITHHSLTLEEAIGEVRRRVEECITEFLAVERDALRFADELADGTVRGKELSGAVRANVGNMRNWFSSMYWFHHESGRYMVDSWDDRSTPPYVNNEAAGEK
B3: HS3ST1 (Mus musculus, UniProt O35310); chain GTASNGSTQQLPQTIIIGVRKGGTRALLEMLSLHPDVAAAENEVHFFDWEEHYSQGLGWYLTQMPFSSPHQLTVEKTPAYFTSPKVPERIHSMNPTIRLLLILRDPSERVLSDYTQVLYNHLQKHKPYPPIEDLLMRDGRLNLDYKALNRSLYHAHMLNWLRFFPLGHIHIVDGDRLIRDPFPEIQKVERFLKLSPQINASNFYFNKTKGFYCLRDSGKDRCLHESKGRAHPQVDPKLLDKLHEYFHEPNKKFFKLVGRTFDWH
B4: enzyme (Streptomyces filamentosus, UniProt A0ABY4UVI6); chain MEHRIDADLLIPGAGEPTVNGSVVHADGRIRFAGPTAELPREHRALEPTRVATLLPGLWDCHVHFAGIRGRVSTEELMLTPETLAVVRSVKDAETALRAGFTSVRDMGGHGCVLAEAVREGTFTGPNIYSANQVIGQTGGHSDAHRLPYRWVTDPCRSGGTLRIADGVDECVRAVRLQLRAGAELIKICTSGGVLSEVDNPVHQQYRSEELNAIVTEAARADRVVAAHCHGRAGILAAIDAGCHTVEHGTEIDERTADLMAERGMTLVPTRTIYEAFRQDVAALPPAWRDRFALMAERHLTAIGIAHRAGVTIALGTDLGTSDRGGPLSWGGHGSEFAHLVSAGLSPLEAIKAATAHGPGTLGPRAPRSGRLEAGYDADLLAVDGNPLADITVLADPDRITRVWKSGEPVPSG
B5: CoA persulfide reductase CDR-RHD (Enterococcus faecalis, UniProt A0ACD6TF65); chain MKIVIIGGVAGGMSAATRLRRLMEDAEIVVMEKGPFVSFANCGLPYYVSGEIAEREQLLVQTPEALKARFNLDVRPHHEVVAIDPIEKVITVKHETEILTEHYDKLILSPGAKPFVPPITGLAEAKNVFSLRNVPDLDQIMTALTPETKRAVVIGAGFIGLEMAENLQKRGLEVTLVEKAPHVLPPLDEEMAAFVKAELSKNNVQVITGQSAVAFEEEGQVIRLEDGQTLASDLTILSVGVQPENTLAVEAGVATGLRGGIVVDEHYQTNQPDIYAVGDAIVVKQQITQEDALISLASPANRQGRQVADVIAGLERKNQGSIGTAIVRVFDLTAASTGLSERAAKAAGLTTAVVHISGKDHAGYYPGATDLQLKLVFHPTTGEIYGAQGIGAKGVDKRIDILATAIKGQLTIFDLPELEFTYAPPFGSAKDPVNMLGYAAMNLVEGLSENVQWYELSNELAKGAVLLDVRNPAERANGQFKNAVSIPLNELRERLEELDKSTEYIVSCHSGLRSYIAERMLKQAGISAKNLDGAFALYRMVKPEELENV
B6: enzyme (Oryza sativa, UniProt Q6Z955); chain MMLAYMDHAAAAAEPDAGAEPAVAAVDAAEFAAAMDFGGLVSARPAAVVRPASSDDVASAIRAAARTAHLTVAARGNGHSVAGQAMARGGLVLDMRALPRRMQLVVAPSGEKFADVPGGALWEEVLHWAVSKHGLAPASWTDYLRLTVGGTLSNGGVSGQSFRYGPQVSNVAQLEVVTGDGECHVCSRSADPDLFFAVLGGLGQFGVITRARIPLSPAPQTVRWTRVVYASFADYAADAEWLVTRPPHEAFDYVEGFAFVRSDDPVNGWPTVPIPDGAHFDASLLPANAGPVLYCLEVALYQRGGGGDGGGDDMDKRVGEMMRQLKYVRGLEFAAGVGYVDFLSRVNRVEDEARRNGSWAAPHPWLNLFISSRDIAAFDRAVLNGMLADGVDGPMLIYPMLKSKWDPATSVALPNGEIFYLVALLRFCRPYPGGGPPVDELVAQNNAIIDACRSNGYDYKIYFPSYHAQSDWSRHFGAKWSRFVDRKARYDPLAILAPGQNIFARTPSSVAAAAAVIV
B7: thyA H147V (Escherichia coli, UniProt P0A884); chain MKQYLELMQKVLDEGTQKNDRTGTGTLSIFGHQMRFNLQDGFPLVTTKRCHLRSIIHELLWFLQGDTNIAYLHENNVTIWDEWADENGDLGPVYGKQWRAWPTPDGRHIDQITTVLNQLKNDPDSRRIIVSAWNVGELDKMALAPCVAFFQFYVADGKLSCQLYQRSCDVFLGLPFNIASYALLVHMMAQQCDLEVGDFVWTGGDTHLYSNHMDQTHLQLSREPRPLPKLIIKRKPESIFDYRFEDFEIEGYDPHPGIKAPVAI
B8: sacB S173A/S422A (Priestia megaterium, UniProt D5DC07); chain KGNDSKDFNNSYGISHITRDNMVKIPQQQNSDQFKVPAFDESTIKNIASAKGKNASGNTIDLDVWDSWPLQNADGTVATYHGYQIVFALAGDPKDSNDTSVYLFYKKAGDKSIDSWKNAGRVFKDSDKFVPNDPHLKNQTQEWAGSGTLTKDGKVRLFYTDYSGKQYGKQTLTTAQVNMSQPNDNTLKVDGVEDYKSIFDGDGKIYQTVQQFIDEGGYDTGDNHTLRDPHYIEDNGHKYLVFEANTGTEDGYQGEDSLYNRAYYGGNNPFFQSEKKKLLEGSNKEKASLANGALGIIELNDDYTLKKVMKPLITSNTVTDEIERANIFKKDGKWYLFTDSRGSKMTIDGIGQDDVYMLGYVSNTLTGKYKPLNDTGLVLHMDLDPNDKTFTYAHFAVPQTKGDNVVITSYMTNRGFYEDNHSTFAPSFLVNIDGSKTSVVKDRVLEQGQLTVDED
Sequence of UniProt P19337 (whole entry, looked up): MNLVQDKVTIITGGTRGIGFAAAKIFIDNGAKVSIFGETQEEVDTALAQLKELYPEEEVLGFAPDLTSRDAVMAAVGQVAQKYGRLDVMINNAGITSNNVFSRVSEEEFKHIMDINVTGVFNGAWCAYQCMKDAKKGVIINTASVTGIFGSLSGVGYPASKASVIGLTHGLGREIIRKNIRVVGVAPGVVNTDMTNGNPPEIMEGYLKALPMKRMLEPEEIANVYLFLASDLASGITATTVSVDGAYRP
Sequence of UniProt P05181 (whole entry, looked up): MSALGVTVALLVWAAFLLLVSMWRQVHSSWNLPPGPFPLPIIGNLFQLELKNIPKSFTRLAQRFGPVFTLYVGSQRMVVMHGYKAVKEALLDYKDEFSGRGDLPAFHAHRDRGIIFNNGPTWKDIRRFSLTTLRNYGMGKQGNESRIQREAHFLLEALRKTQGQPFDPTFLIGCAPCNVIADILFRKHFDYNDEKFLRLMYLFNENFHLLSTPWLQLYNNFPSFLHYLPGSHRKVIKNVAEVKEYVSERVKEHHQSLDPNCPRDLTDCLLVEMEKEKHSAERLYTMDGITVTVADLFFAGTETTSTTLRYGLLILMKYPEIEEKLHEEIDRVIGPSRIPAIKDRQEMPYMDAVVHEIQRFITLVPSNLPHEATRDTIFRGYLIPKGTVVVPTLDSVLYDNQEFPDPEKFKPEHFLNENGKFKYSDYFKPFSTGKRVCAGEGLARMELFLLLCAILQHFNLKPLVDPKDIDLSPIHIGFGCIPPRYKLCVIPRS
Sequence of UniProt Q9GTP5 (whole entry, looked up): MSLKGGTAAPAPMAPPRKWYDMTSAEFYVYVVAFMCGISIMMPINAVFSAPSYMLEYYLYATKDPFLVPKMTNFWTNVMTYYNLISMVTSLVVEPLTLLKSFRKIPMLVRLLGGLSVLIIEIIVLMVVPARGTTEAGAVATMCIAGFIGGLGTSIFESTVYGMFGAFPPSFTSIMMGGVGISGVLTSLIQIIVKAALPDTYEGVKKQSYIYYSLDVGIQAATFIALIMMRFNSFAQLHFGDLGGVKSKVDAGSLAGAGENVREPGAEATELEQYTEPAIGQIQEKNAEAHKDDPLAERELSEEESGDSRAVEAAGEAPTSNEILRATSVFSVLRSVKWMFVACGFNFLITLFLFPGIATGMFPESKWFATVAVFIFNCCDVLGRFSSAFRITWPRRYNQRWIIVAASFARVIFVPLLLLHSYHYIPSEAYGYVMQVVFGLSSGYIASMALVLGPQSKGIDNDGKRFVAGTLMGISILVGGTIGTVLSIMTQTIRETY
Sequence of UniProt A8M783 (whole entry, looked up): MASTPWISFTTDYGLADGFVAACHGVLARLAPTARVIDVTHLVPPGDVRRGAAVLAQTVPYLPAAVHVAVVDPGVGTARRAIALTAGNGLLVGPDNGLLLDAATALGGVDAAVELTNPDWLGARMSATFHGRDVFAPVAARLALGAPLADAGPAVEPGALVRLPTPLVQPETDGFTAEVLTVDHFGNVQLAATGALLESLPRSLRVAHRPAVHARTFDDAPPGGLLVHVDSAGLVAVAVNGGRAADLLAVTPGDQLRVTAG

`B1 (LdmS)` has a Km of 580 µM (CSCC[C@H](N)C(=O)O; pH 8, 37 °C, together with: ATP 2.5 mM, L-Asp 50 mM, MgCl2 5 mM).
`BaiA2 (Clostridium scindens, UniProt P19337)` gave a Km of 32 µM (C[C@H](CCC(=O)SCCNC(=O)CCNC(=O)[C@H](O)C(C)(C)COP(=O)(O)OP(=O)(O)OC[C@H]1O[C@@H](n2cnc3c(N)ncnc32)[C@H](O)[C@@H]1OP(=O)(O)O)[C@H]1CC[C@H]2[C@@H]3[C@H](O)C[C@@H]4C[C@H](O)CC[C@]4(C)[C@H]3C[C@H](O)[C@]12C; pH 8.7, 37 °C, together with: NAD+).
With `B2 (cyc1 V329M)` the Km was 6.5 µM (CC(C)=CCC/C(C)=C/CC/C(C)=C/CO[P@@](=O)(O)OP(=O)(O)O; pH 6.5, 30 °C, together with: MgCl2 10 mM).
`B3 (HS3ST1)` has a Km of 13.5 µM (Nc1ncnc2c1ncn2[C@@H]1O[C@H](COP(=O)(O)OS(=O)(=O)O)[C@@H](OP(=O)(O)O)[C@H]1O; pH 7, 37 °C).
`alanine aminopeptidase (Neisseria meningitidis, UniProt Q9JYV4)` has a Km of 175 µM (C[C@H](N)C(=O)Nc1ccc2c(CC(N)=O)cc(=O)oc2c1; pH 7.5, 37 °C).
`CYP2E1 (Homo sapiens, UniProt P05181)` has a Km of 54.2 µM (C=Cc1ccc(F)cc1; pH 7.4, 37 °C).
With `B4 (enzyme)` the Km was 120 µM (CSc1c(O)cc(-c2ccccn2)nc1C(=O)N[C@@H](CC(C)C)C(=O)O; pH 8, 30 °C).
For `B5`, the Km was 270 µM (N[C@@H](CSS)C(=O)O; pH 8, 25 °C, Km not accurate, together with: FAD 100 nM, NADH 100 µM).
The Km of `protein (Salinispora arenicola, UniProt A8M783)` is reported as 1.6 µM (C[S+](CC[C@H](N)C(=O)O)C[C@H]1O[C@@H](n2cnc3c(N)ncnc32)[C@H](O)[C@@H]1O; pH 7.9, 37 °C, apparent).
`B6 (enzyme)` has a Km of 28.3 µM (C/C(=C/CNc1ncnc2[nH]cnc12)CO; pH 9.5, 40 °C, apparent).
The Km of `B7 (thyA H147V)` is reported as 25 µM (Nc1nc2c(c(=O)[nH]1)N1CN(c3ccc(C(=O)N[C@@H](CCC(=O)O)C(=O)O)cc3)C[C@H]1CN2; 25 °C, substrate inhibition by CH2H4folate, cofactor varied, together with: dUMP 200 µM).
For `protein (Crithidia fasciculata, UniProt Q9GTP5)`, the Km was 59 µM (Nc1ncnc2c1ncn2[C@@H]1O[C@H](CO)[C@@H](O)[C@H]1O; L. donovani; not purified).
For `B8 (sacB S173A/S422A)`, the Km was 7900 µM (OC[C@H]1O[C@@](CO)(O[C@H]2O[C@H](CO)[C@@H](O)[C@H](O)[C@H]2O)[C@@H](O)[C@@H]1O; pH 6.6).

Excerpt of the above:
`B3 (HS3ST1)` has a Km of 13.5 µM (Nc1ncnc2c1ncn2[C@@H]1O[C@H](COP(=O)(O)OS(=O)(=O)O)[C@@H](OP(=O)(O)O)[C@H]1O; pH 7, 37 °C).
`alanine aminopeptidase (Neisseria meningitidis, UniProt Q9JYV4)` has a Km of 175 µM (C[C@H](N)C(=O)Nc1ccc2c(CC(N)=O)cc(=O)oc2c1; pH 7.5, 37 °C).
